Measured values collected from several papers.
Each numbered part is a random draw from the data of one study; scales do not carry over between parts. Substitutions count along the parent as printed.

Series 1 — target: CREBRF, bZIP domain (human); technique: DHFR protein complementation; matrix: yeast; reference: wild-type JUN-FOS pair; reading: higher = stronger binding; quantity: binding fitness
Notes: single substitutions, most at no-binding floor
Starting sequence: JUN, bZIP domain (human); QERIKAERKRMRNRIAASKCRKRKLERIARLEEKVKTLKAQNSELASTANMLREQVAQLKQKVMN; partner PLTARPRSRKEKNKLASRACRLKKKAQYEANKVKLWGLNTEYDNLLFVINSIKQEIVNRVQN
R30G: -1.32 natural log
K34F: -0.974 natural log
N42S: -1.54 natural log
R30E: -1.25 natural log
A29F: -1.52 natural log
E33D: -1.5 natural log
L59R: -1.42 natural log
S47V: -1.39 natural log
E33T: -1.46 natural log
A49R: -1.36 natural log
M51Q: -1.4 natural log
L31H: -1.46 natural log
K34L: -1.49 natural log
A57Q: -1.36 natural log
E44F: -1.5 natural log
N42M: -1.46 natural log
E32Y: -1.48 natural log
K34Y: -0.973 natural log

Series 2 — target: CCNB2, cyclin fold, Cln2 fusion (human); technique: yeast growth competition, sequencing; matrix: yeast; notes: strong parent motif; reference: not given; reading: higher = stronger binding; quantity: normalised enrichment score
Starting sequence: BRCA2 docking peptide (human); PSIKRNLLNEFDR; partner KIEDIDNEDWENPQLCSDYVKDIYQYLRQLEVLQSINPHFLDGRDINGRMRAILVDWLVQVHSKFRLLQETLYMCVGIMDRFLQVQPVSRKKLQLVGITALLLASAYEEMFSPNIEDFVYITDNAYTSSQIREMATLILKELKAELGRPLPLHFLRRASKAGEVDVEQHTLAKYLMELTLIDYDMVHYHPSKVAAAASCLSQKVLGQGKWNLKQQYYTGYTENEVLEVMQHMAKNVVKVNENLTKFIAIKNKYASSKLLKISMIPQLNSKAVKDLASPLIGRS
P1V: 3.76
L8A: 2.55
L7G: -0.0623
R5W: 0.227
F11I: 1.51
L8D: 0.73
P1A: 3.64
E10Y: 1.05
K4F: 1.33
P1D: 3.77
K4W: 0.0803
P1Y: 4.09
R13L: 3.56
S2Q: 3.58
R5H: -0.0449
S2E: 3.03
L7Q: 0.695
E10A: 0.7
D12Q: 3.82
R13G: 3.81
R13S: 4
S2N: 3.13
N6G: -0.181
S2G: 2.71
L8P: 0.0213

Series 3 — technique: RNA Bind-n-Seq; molecule type: RNA; matrix: in vitro; concentration: 365 nM; reference: no-protein control; reading: higher = stronger binding; quantity: RBNS enrichment (R)
Target: RNA binding protein fox-1 homolog 2, RRM domain, GST-SBP tag (RBFOX2, Homo sapiens, UniProt O43251-10, residues 100-194)
Notes: natural RNA segment, single round, ends assumed
Constant ends, left off below: GGGAGUUCUACAGUCCGACGAUC … UGGAAUUCUCGGGUGCCAA
Construct (chain): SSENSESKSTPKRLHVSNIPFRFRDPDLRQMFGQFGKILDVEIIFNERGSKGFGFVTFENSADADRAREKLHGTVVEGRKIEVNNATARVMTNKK
UGACAGUCAAGUGCCAUCUGGAUCUUAAGGAGCUUCCAUUUCUCCAGCUCAGUCCAUUGGAAUAGUAUUAGGUUUUGGUUUUUUGUUGUAUUUCCCCCUUUCCACUGGGC: 1.37
CCGCUUCUCAGCGGUCCAUCUCAGCGUCUCCCUUCAGGAACCGCUGAGUGUCCUCUCUUAACAUCCAAGCCUUUUAAUGAAAUCGUACUGAAAUCUGUAUCAGCUAAGAG: 0.282
AACUCUUUCUAUCCCGUGAAUAAAAGCAUCCCUUGGCUGGGAUAUAGGGCCACAUCAACCUGAGUUGGUACUGGGUGGCCAGGAUGGGGACUUUCCCAUUCUCAGCUGAG: 0.642
AACAUCACCAGCCUGGGCUAAGCUCCUGGGCUGUGCCGUCCACUGGGGACUGGGGAUGGGACACCUGAGGACAUUCUGAGACUUCUUUCUUCCUUCCUUUUUUUUUUUUU: 0.722
CAAGGGUGCCACGGGCUCUGAAGCUAACGGGCAUCCCACGCGGUCAGGUGUAGUAGUGAACUUGAACAUUUGAAUGGGAAGGAAGCACUUCGCACAAUGGCAUUUGAACA: 0.417
CAGCCAGUUUUGGUUUAUGCCUAGAGCUACUUCAAGGAACUAGACUAAUUAGCUAUAUAGGCCCAGCGAUGCUUCUUAUUGAUCUUAAUAGUAUGCCCCUCCUUCCCCUG: 0.295
AAUAAGAUGCUUGAACAAGUUAGAUGAAAUGGAUCUUUGAGAUAAGUCUGAGAGACAGAGUUACUUAGACAAAUGACACUGAAGCAGAUUAGAAGCUAGUAUCACCCAUU: 0.462
UGGGCUCUCUAGGUGGCCCUGGUCUUGCCCCAUCCAUCCCACCUGCCACUACCUUGGGUGUCCUUACAGCUCUGCCCUGACCCCAGCCCCUGCCCCUGGACACCUGCUGA: 0.684

Series 4 — technique: RNA Bind-n-Seq; molecule type: RNA; matrix: in vitro; concentration: 200 nM; notes: whole 134-nt RNA, ends assumed; together with: 150 mM LiCl; reference: input library; reading: higher = stronger binding; quantity: log2 enrichment; library: 7-deaza-guanosine replaces G
Target: Ras GTPase-activating protein-binding protein 1, full length (G3BP1, Homo sapiens, UniProt Q13283)
UniProt Q13283, sequence (whole entry, looked up): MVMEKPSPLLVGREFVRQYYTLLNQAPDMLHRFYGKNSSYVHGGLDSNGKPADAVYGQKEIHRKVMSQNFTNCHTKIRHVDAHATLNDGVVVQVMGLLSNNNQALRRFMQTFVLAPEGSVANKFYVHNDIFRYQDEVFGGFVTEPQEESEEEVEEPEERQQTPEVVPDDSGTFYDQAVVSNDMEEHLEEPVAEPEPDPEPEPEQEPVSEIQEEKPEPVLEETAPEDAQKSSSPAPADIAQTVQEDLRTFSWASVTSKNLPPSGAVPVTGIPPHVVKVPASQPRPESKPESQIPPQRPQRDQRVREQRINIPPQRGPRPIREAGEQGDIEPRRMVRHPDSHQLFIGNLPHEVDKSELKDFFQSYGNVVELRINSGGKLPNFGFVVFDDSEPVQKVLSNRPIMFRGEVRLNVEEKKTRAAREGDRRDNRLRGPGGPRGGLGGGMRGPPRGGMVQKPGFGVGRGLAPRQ
Constant ends, left off below: GGGAGUUCUACAGUCCGACGAUC … UGGAAUUCUCGGGUGUCAAGG
CUGUGCUACACAUCGUAUGUACCGAAUCGGGGAAAGGGGUUUUUUUGGGGAAAAAAAGGGGAAAGUAUUAUGUUACGCCGUUCGGAUCUG: 0.312
CUCAAGUCCUGUGCUACACAUCGUAUGUACCGAAUCGGGGAAGGAAGGAAGGGGAAAGUAUUAUGUUACGCCGUUCGGAUCUGCACUUCC: -0.26
UUCCCAAGAUGGCGGCGGACGUGUCCGUUACUCACCGGCCCCCGCUGAGCCCUAAGUCUGGGGCCGAAGUCGAAGCCGGCGAUGCCGCGG: -3.14
GCAGGAAGUAAAAACAAAUGGAAAUGCUUCGGAUAGUGGCAGGGGUGGGGGUUGCUAAGGAAAGGGUGGCAUGGGAGUGGGUAAAGAGUU: 0.0321
UGGGAGGUGGAUUUUGUAUAUUUUUUUAGCUCAUUUCCAGGGGUGGGAAUUUUUUUUUAAUAUGUGUCAUGAAUAAAGUUGUUUUUGAAA: 0.0322
AAGUCCUGUGCUACACAUCGUAUGUACCGAAUCGGUUUUGGGGUUUUGGGUUUUGGAAAGUAUUAUGUUACGCCGUUCGGAUCUGCACUU: -0.526
CCUGUGCUACACAUCGUAUGUACCGAAUCGGGGAAAAAAGGGGAAAAAAGGAAAAAAGGGAAAGUAUUAUGUUACGCCGUUCGGAUCUGC: 0.403
CCUCAAGUCCUGUGCUACACAUCGUAUGUACCGAAUCGGGGCGGGCGGCGGGGAAAGUAUUAUGUUACGCCGUUCGGAUCUGCACUUCCA: 0.371

Excerpt of the above (series 1):
E32Y: -1.48 natural log
L31H: -1.46 natural log
N42S: -1.54 natural log
N42M: -1.46 natural log
